Measured values collected from several papers.
Several values in a cell are separate wells, animals, samples, runs or records. ± gives the spread as reported.

With `N=C(N)NCCC[C@@H]1NC(=O)[C@H](CCCNC(=N)N)NC(=O)[C@@H](C(c2ccccc2)c2ccccc2)NC(=O)[C@H](Cc2c[nH]c3ccccc23)NC(=O)[C@@H](C(c2ccccc2)c2ccccc2)NC(=O)[C@@H](CCCNC(=N)N)NC(=O)[C@@H](CCCNC(=N)N)NC1=O` the calcein leakage was 12 to 18% (mammalian membrane liposomes; 50 µg/mL, 100 min).
With `COc1cnc2cccc(N3CCc4c(cc(Cn5ccnc5)cc4-c4cn(C)nc4C(F)(F)F)C3=O)c2c1` the tumour volume was 153 mm3 and 119 mm3 and 140 mm3 and 143 mm3 and 144 mm3 (BALB/c nude mice, MV4-11 xenograft; intraperitoneal, 75 mg/kg, day 17).
With `O=C(O)c1cccc(CN2Cc3cccc(n3)CN(Cc3cccc(C(=O)O)n3)Cc3cccc(n3)C2)n1` the r1 relaxivity was 3.6 mM⁻¹ s⁻¹ (HEPES buffer with NaCl; 33 °C, 1.4 T).
`CC(=O)[O-].O.O.[O-]c1ccc(Br)cc1C=NCCN1CCOCC1.[Zn+2]` gave an inhibition of 37.8% (nitric oxide scavenging; 160 µM).
`Cc1ncsc1-c1ccc(C(C)NC(=O)C2CC(O)CN2C(=O)C(NC(=O)CCCCCCCCCCN2CCCC(Nc3ncc(Cl)c(Nc4ccccc4S(=O)(=O)C(C)C)n3)C2)C(C)(C)C)cc1` (stereo not drawn) — result for “log2 fold change”: -1.01 (22Rv1; RNA-seq, refers to: MMS22L; concentration not given; relative to: DMSO).
`CNS(=O)(=O)Nc1nccc(Cc2c(C)c3ccc(Oc4ncccc4F)cc3oc2=O)c1F` has an IC50 of greater than 1 µM (HCC1143; cell viability; 7 days).
For `CC(CCC(=O)NCc1ccc(C(=O)NO)cc1)C1CCC2C3C(O)CC4CC(O)CCC4(C)C3CCC12C` (stereo not drawn), the relative abundance was 10.9% (refers to: Glyco-conj; PCK rat (Pkhd1 mutant), portal blood; oral gavage, dose not given, 5 months; relative to: total bile acids).
`COC1CN([C@H]2CC[C@H]([C@@]3(C)Oc4c(Cl)cc(C(=O)NCc5c(SC)cc(C)[nH]c5=O)c(C)c4O3)CC2)C1`: “log2 fold change” 1.45 (RNA-seq, refers to: MPV17L; human, whole blood; dose not given, 24 h; relative to: pretreatment baseline).
`C=CC(=O)Nc1cccc(Cn2ncc3cnc(Nc4cnn(CCOC)c4)nc32)c1`: “percent of control” 85% (CDK2 human; binding, KINOMEscan; 100 nM; lower = stronger binding).
`Cc1[nH]nc2c1N=C(c1ccccc1Cl)c1cnc(N3CCOCC3)cc1N2` — result for “tumour growth inhibition”: 80.7% (mouse HCC1806 TNBC xenograft; oral, 15 mg/kg once daily).
`COc1ccc2cc3[n+](cc2c1OCCCOC(=O)c1cscn1)CCc1cc2c(cc1-3)OCO2`: “plasma total cholesterol reduction” 35.6% (C57BL/6 mice, high-fat diet; oral gavage, 20 mg/kg daily, 14 weeks; relative to: HFD control).
`C[n+]1cccc2cc(/C=N/NC(=O)c3cncc(C(=O)N/N=C/c4ccc5c(ccc[n+]5C)c4)n3)ccc21` gave a ΔTm of 19.5 ± 0.2 °C (myc22 MYC G4-DNA parallel; FRET melting; 1 µM, K1 buffer, DNA 0.2 µM).
`COc1cccc(OCCN2CCC[C@H](CN3CCc4cc(OC)c(OC)cc4CC3=O)C2)c1` — result for “time in centre, open field”: “no effect” (C57BL/6J mouse, female, stress-naive; intraperitoneal, 5 mg/kg, 14 d post-dose; relative to: before dosing).
With `CN(C)Cc1nc(Nc2ccc(-c3cnc4cc(F)ccn34)c3c2C(=O)NC3)ccc1C1CCOC1` (stereo not drawn) the complete responses was 6 mice of 20 (mouse EMT6 syngeneic tumour; 75 mg/kg per day, day 28).
`CN1CCC[C@]1(C)/C=C/S(=O)(=O)NC(=O)Nc1c2c(cc3c1CCC3)CCC2` has an IL-18 inhibition of 126% (human, whole blood ex vivo; 50 mg single dose, 12 h, single ascending dose, with: LPS and ATP).
`CCCCCc1ccc(S(=O)(=O)N2CC2C(=O)OC)cc1` (stereo not drawn) gave a tumour volume of 216 mm3 (mouse, Lewis lung carcinoma; intraperitoneal, 5 mg/kg, 16 doses, day 11).
The DHA level of `COc1ccc(C(=O)CCc2cc(C(CCc3ccc(O)cc3OC)c3ccc(O)cc3)c(O)cc2OC)cc1` (racemic) is reported as 129000 ± 46800 pg/mL (human blood; 10 µM, with: A23187).
`C[C@H](NC(=O)COC(=O)[C@H](C)NC(=O)CO)C(=O)O`: “backbone scission rate constant” 0.0051 h⁻¹ (water; pH 2, 50 °C).
`COc1cc(O)ccc1CCC(c1ccc(O)cc1)c1cc2c(c(C)c1O)OC(c1ccc(O)cc1)CC2` (mixture of isomers) has an amount of 8910 ± 3170 pg/mL blood (refers to: 14-HDHA; human whole blood; 0.3 µM, with: Escherichia coli).
The ΔTm of `CC[n+]1cccc2cc(/C=N/NC(=O)c3ccc4ccc(C(=O)N/N=C/c5ccc6c(ccc[n+]6CC)c5)nc4n3)ccc21` is reported as 15.5 ± 0.6 °C (myc22 MYC G4-DNA parallel; FRET melting; 1 µM, K1 buffer, DNA 0.2 µM, with: ds26 10 µM).
For `COc1ccc2c(c1)CN(C(=O)CCN1CCC(Cc3ccccc3)CC1)CCS2`, “mean time to conversion to sinus rhythm” read 86.7 ± 8.4 min (patients with paroxysmal atrial fibrillation; oral, 540 mg, converted patients of 6).
With `NC[C@@H](C(=O)Nc1ccc(-c2cn[nH]c2)cc1)c1ccccc1` the IOP was 32.9 mmHg (tonometry; NZW rabbit, magnetic bead-induced ocular hypertension; ocular, 0.03%, 26 h).
`CC(C)C[C@H](NC(=O)CNC(=O)[C@H](CCC(N)=O)NC(=O)[C@H](CC(C)C)NC(=O)[C@H](CC(C)C)NC(=O)[C@H](CCCNC(=N)N)NC(=O)[C@H](CCC(N)=O)NC(=O)[C@H](CC(C)C)NC(=O)[C@H](CCCNC(=N)N)NC(=O)[C@H](C)NC(=O)CNC(=O)[C@H](CCC(=O)O)NC(=O)[C@H](CCCNC(=N)N)NC(=O)[C@H](CC(C)C)NC(=O)[C@H](CCCNC(=N)N)NC(=O)[C@H](CO)NC(=O)[C@H](CC(C)C)NC(=O)[C@H](CCC(=O)O)NC(=O)[C@H](CO)NC(=O)[C@@H](NC(=O)[C@H](Cc1ccccc1)NC(=O)[C@@H](NC(=O)CNC(=O)[C@H](CC(=O)O)NC(=O)C(C)(C)NC(=O)[C@@H](N)Cc1c[nH]cn1)[C@@H](C)O)[C@@H](C)O)C(=O)N[C@@H](CC(C)C)C(=O)N[C@@H](CCC(N)=O)C(=O)NCC(=O)N[C@@H](CC(C)C)C(=O)N[C@H](C(=O)NCC(=O)N[C@@H](CCCCNC(=O)COCCOCCNC(=O)COCCOCCNC(=O)CC[C@H](NC(=O)CCCCCCCCCCCCCCCCC(=O)O)C(=O)O)C(N)=O)C(C)C` — result for “plasma free fatty acids”: “no effect” (DIO C57BL/6J mice; sc, 300 nmol/kg twice daily, end of 8 days).
For `O=S(=O)(NCc1ccncc1)c1ccc(C2CCCCC2)cc1`, “improvement in escape latency” read 67.4 ± 30.1% (Morris water maze; CK-p25 mouse; intraperitoneal, 0.3 mg/kg daily, 6 weeks, final day vs first; relative to: first trial).
`CN1CCCNC(=O)c2cccc(c2)C(=O)NCCCN(C)CCCNc2cccc3c2C(=O)c2cccc(c2C3=O)NCCC1` gave a tumour volume of 102 mm3 (SAS xenograft, KSN/Slc nude mice; dose not given, 48 h (day 2), group mean).
The protein carbonylation of `N[C@@H](CNC(=O)N[C@@H](CS)C(=O)NCC(=O)O)C(=O)O` is reported as 1.5 fold (anti-DNP immunoblot; mouse C57BL/6, Aβ i.c.v. model, brain; intranasal, dose not given; relative to: Aβ-only).
`C#CC(C)(C)C(=O)SCCOP1(=O)OCC2OC(n3cnc4c(N)ncnc43)CC2OP(=O)(OCCSC(=O)C(C)(C)C#C)OCC2OC(n3cnc4c(N)ncnc43)CC2O1` (stereo not drawn): “complete response rate” 50% (mouse B16-F10 melanoma; intratumoral, 1 mg/kg, three doses at 3-day intervals).

Repeated from above:
`CNS(=O)(=O)Nc1nccc(Cc2c(C)c3ccc(Oc4ncccc4F)cc3oc2=O)c1F` has an IC50 of greater than 1 µM (HCC1143; cell viability; 7 days).
For `CC(CCC(=O)NCc1ccc(C(=O)NO)cc1)C1CCC2C3C(O)CC4CC(O)CCC4(C)C3CCC12C` (stereo not drawn), the relative abundance was 10.9% (refers to: Glyco-conj; PCK rat (Pkhd1 mutant), portal blood; oral gavage, dose not given, 5 months; relative to: total bile acids).
`COC1CN([C@H]2CC[C@H]([C@@]3(C)Oc4c(Cl)cc(C(=O)NCc5c(SC)cc(C)[nH]c5=O)c(C)c4O3)CC2)C1`: “log2 fold change” 1.45 (RNA-seq, refers to: MPV17L; human, whole blood; dose not given, 24 h; relative to: pretreatment baseline).
